Results of several laboratories.
Parts stem from different laboratories: compare values within a part only.

Set 1
Target: Histone acetyltransferase KAT6A, winged helix 2, GST fusion (KAT6A, Homo sapiens, UniProt Q92794, residues 85-181)
Method: protein binding microarray
Form: double-stranded DNA, one strand shown
Sample: in vitro
Tested at: not given
Setting: 8-mer, flanks averaged, mean of 2 arrays, mostly near background
Baseline: not given
Reading: higher = stronger binding
Endpoint: E-score
Target sequence (chain): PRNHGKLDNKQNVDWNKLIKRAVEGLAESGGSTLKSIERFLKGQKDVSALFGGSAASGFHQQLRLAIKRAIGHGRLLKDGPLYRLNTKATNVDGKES
ACTGACGC: -0.0854
CTGATACC: -0.0423
GAGCGATA: -0.0295
ACACGAAC: 0.177
ACGCGGCT: -0.0564

Set 2
Target: Interferon regulatory factor 7, full length, phosphomimetic (IRF7, Homo sapiens, UniProt Q92985, residues 1-503, S471D/S472D/S475D/S476D/S477D/S483D/S484D/S487D)
Sequence of UniProt Q92985 (whole entry, unmodified, looked up): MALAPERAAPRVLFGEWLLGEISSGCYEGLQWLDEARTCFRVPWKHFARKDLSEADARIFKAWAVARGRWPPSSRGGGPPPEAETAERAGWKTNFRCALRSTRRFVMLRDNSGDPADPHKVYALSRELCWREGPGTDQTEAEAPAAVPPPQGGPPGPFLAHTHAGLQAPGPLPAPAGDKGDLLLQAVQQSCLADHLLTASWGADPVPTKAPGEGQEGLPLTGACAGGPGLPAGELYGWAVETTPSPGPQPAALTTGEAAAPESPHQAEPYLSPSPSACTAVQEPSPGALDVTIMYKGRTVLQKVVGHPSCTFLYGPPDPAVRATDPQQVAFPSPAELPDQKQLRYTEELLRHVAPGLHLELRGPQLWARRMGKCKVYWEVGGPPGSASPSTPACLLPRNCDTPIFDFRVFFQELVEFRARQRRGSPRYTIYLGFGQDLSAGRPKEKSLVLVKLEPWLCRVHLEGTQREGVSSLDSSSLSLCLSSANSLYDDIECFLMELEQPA
Method: protein-binding microarray
Form: double-stranded DNA, one strand shown
Sample: in vitro
Tested at: 2200 nM top
Setting: 60-bp whole probe
With: salmon DNA 0.4 mg/ml
Baseline: random background probes
Reading: higher = stronger binding
Endpoint: fitted relative affinity
GCCTAGCACTCATCTATCAAAAATACAACTGTGCTAGTCTTGATTCGCTTGACGCTGCTG: -0.065 z-score
GCCTAGCACTTAGATCTCAGTTACGATTAGTGCTAGGTCTTGATTCGCTTGACGCTGCTG: 0.418 z-score
GCCTAGCACGCCGGTCTCGGACTGGGGACGTGCTAGGTCTTGATTCGCTTGACGCTGCTG: -0.476 z-score
GCCTAGCACTTAGGTTTCGGTTTCAGTTAGTGCTAGGTCTTGATTCGCTTGACGCTGCTG: 13.1 z-score

Set 3
Target: Sal-like protein 4, full length isoform B (SALL4, Homo sapiens, UniProt Q9UJQ4-2, residues 1-616)
Method: universal PBM
Form: double-stranded DNA, one strand shown
Sample: in vitro
Tested at: not given
Setting: 8-mer, flanks averaged, mean of replicates
Reading: higher = stronger binding
Endpoint: E-score
Residues (chain): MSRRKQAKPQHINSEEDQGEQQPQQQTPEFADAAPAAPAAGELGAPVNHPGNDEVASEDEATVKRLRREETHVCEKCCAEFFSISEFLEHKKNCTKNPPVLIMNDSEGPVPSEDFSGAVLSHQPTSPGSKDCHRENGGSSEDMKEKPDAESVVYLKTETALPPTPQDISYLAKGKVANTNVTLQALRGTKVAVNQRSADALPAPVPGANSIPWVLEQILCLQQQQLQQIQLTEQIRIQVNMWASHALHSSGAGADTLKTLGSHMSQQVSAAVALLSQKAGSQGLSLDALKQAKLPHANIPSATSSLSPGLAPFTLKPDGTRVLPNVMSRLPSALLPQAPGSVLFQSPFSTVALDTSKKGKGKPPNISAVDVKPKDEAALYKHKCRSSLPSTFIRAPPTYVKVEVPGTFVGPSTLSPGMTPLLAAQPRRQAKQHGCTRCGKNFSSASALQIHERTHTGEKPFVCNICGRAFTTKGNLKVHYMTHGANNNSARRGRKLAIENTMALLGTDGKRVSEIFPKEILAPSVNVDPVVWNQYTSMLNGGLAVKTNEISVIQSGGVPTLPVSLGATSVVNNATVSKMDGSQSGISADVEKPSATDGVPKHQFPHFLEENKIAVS
CTGATCTA: 0.0236
AGGGTAGA: -0.143
GGTAGTAA: 0.0945
GTATCAAA: 0.229

Mixed results
PhoQ, residues 284 288 289 292 302 303 SLSLLA  fold induction (PhoP, residues 12 14 15 18 19 NNFVT (Escherichia coli, UniProt P23836); Sort-seq, item: YFP reporter; E. coli; PhoQ-PhoP variant library, with: 10 µM Mg2+; baseline: high Mg2+ state, higher = stronger signaling): 13.3
